Measurements gathered from unrelated publications.
Lines come from different studies, so protocols differ. ± gives the spread as reported.
USP33 ZnF-UBD domain: Ubiquitin carboxyl-terminal hydrolase 33, ZnF-UBD domain (USP33, Homo sapiens, UniProt Q8TEY7)
Sequence of UniProt Q8TEY7 (whole entry, looked up): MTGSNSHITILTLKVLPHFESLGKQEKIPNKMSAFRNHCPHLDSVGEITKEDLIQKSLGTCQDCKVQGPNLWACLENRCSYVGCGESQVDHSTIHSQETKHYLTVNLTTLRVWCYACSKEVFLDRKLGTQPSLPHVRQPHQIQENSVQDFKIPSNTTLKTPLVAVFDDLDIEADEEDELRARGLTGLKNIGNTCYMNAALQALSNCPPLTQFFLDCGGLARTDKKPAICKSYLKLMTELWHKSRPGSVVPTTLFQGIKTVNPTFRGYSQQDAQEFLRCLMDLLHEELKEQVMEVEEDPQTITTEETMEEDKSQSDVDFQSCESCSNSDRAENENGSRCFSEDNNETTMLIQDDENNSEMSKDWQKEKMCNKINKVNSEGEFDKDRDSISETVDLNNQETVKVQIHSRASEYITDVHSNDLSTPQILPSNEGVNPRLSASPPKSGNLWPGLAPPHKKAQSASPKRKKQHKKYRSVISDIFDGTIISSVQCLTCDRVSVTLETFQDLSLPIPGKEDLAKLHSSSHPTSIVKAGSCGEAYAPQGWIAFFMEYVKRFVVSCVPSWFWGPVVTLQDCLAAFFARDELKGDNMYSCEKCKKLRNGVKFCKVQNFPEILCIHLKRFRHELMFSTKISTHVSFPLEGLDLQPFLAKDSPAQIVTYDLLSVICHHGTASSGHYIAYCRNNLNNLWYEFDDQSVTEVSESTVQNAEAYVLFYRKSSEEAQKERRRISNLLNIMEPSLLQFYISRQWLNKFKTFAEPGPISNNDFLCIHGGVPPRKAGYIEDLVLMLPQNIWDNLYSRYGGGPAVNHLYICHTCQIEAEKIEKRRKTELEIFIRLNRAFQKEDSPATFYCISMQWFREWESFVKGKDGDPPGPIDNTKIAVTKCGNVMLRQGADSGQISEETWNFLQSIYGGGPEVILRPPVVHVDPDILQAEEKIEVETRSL
IDE: Insulin-degrading enzyme (IDE, Homo sapiens, UniProt P14735)
Cereblon/Ikaros: Cereblon/Ikaros (Homo sapiens, UniProt Q13422+Q96SW2)
Sequence of UniProt Q13422 (whole entry, looked up): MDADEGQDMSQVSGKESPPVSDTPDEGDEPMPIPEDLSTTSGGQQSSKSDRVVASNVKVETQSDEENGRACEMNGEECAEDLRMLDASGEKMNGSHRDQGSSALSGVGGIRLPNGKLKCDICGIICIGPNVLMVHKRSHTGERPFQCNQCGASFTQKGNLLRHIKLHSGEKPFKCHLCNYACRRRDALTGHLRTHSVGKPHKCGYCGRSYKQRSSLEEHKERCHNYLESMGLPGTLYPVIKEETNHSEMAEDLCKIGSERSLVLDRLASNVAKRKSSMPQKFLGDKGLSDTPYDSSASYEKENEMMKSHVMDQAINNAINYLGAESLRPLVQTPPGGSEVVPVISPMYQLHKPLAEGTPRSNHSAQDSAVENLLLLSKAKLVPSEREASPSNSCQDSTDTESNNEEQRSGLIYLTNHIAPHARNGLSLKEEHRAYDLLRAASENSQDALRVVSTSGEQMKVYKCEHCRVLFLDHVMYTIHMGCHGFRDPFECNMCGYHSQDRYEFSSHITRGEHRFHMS
Sequence of UniProt Q96SW2 (whole entry, looked up): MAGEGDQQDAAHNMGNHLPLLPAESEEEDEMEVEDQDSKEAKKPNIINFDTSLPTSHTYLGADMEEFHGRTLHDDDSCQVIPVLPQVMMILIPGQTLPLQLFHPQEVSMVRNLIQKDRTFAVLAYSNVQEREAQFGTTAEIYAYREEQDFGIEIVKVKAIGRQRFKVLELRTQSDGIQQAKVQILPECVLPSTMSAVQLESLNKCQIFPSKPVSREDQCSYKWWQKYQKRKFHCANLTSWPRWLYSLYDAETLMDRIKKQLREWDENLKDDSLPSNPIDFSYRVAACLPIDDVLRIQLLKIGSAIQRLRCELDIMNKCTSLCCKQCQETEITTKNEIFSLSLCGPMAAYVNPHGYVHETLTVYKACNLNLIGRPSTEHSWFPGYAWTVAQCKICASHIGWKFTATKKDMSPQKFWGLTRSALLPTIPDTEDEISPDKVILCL
Sequence of UniProt Q13336 (whole entry, looked up): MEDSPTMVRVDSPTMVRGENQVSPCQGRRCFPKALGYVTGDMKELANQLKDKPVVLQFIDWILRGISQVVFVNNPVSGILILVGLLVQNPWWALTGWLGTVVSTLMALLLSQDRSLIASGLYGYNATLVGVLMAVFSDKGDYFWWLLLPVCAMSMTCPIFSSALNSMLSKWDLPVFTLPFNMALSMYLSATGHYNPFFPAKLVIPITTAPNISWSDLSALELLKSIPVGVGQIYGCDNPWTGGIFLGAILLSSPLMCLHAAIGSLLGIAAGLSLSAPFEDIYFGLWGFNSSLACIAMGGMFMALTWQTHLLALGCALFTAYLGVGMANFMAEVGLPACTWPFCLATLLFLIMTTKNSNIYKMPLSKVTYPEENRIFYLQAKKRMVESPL

`O=C(O)CCc1cnn(-c2ccccc2)c1` has a Kd of > 1000 µM (USP33 ZnF-UBD domain).
For `Cc1ccccc1-c1ccc([C@@H]2[C@H]3CN(S(=O)(=O)c4cn(C)cn4)CCCCN3[C@H]2CO)cc1`, the EC50 was 1.7 µM (IDE; enzyme activity, inhibitor, fluorogenic kinetic; with: Mca-RPPGFSAFK(Dnp)-OH substrate).
The DC50 of `CC(C)(CNC1(c2cccc(NC3=CC(=O)N(C4CCC(=O)NC4=O)C3=O)c2)CCC1)c1ccc(C(F)(F)F)c(Cl)c1` (centres unmarked) is reported as 0.55 ± 0.06 µM (Cereblon/Ikaros; degrader).
`NS(=O)(=O)c1nnc(NC(=O)CN2CCC3(CC2)CC3)s1` has a Ki of 0.099 µM (Enterococcus faecium γ-carbonic anhydrase; CO2 hydration, inhibitor, stopped-flow kinetics).
For `Cc1ccccc1-c1ccc([C@@H]2[C@H]3CN(C(=O)c4ccncc4)CC(=O)N3[C@H]2CO)cc1`, the EC50 was 4.2 µM (IDE; enzyme activity, inhibitor, fluorogenic kinetic; with: Mca-RPPGFSAFK(Dnp)-OH substrate).
For `Cn1cc(-c2ccc(-c3cncc(Cl)c3N3CCC4(CCNC4=O)CC3)cc2)cn1`, “log2 fold change” read 2.07 (COLO 205; gene expression, microarray, item: NDRG1 mRNA; concentration not given, 2 h; reference: untreated cells).
For `O=C(O)CCC(=O)N1CCc2ccccc21`, the Kd was > 1000 µM (USP33 ZnF-UBD domain).
With `Cc1cccc(-c2ccc([C@@H]3[C@@H](CO)N4CCCCN(C(=O)c5ccncc5)C[C@@H]34)cc2)c1` the EC50 was 16.5 µM (IDE; enzyme activity, inhibitor, fluorogenic kinetic; with: Mca-RPPGFSAFK(Dnp)-OH substrate).
For `O=C1CCC(N2C(=O)C=C(Nc3cccc(S(=O)(=O)NCCc4ccc(C(F)(F)F)c(Cl)c4)c3)C2=O)C(=O)N1` (centres unmarked), the DC50 was 9.9 ± 2.5 µM (Cereblon/Ikaros; degrader, HiBiT luminescence, item: endogenous HiBiT-tagged protein).
For `CC(C)C[C@H](NC(=O)C[C@H](O)[C@H](CC(C)C)NC(=O)[C@H](Cc1c[nH]cn1)NC(=O)CNC(=O)[C@@H](NC(=O)[C@H](C)NC(=O)[C@H](Cc1c[nH]c2ccccc12)NC(=O)[C@H](CCC(N)=O)NC(=O)[C@@H](Cc1ccccc1)NC(=O)COCCOCCNC(=O)CCC(C(=O)O)N1CCN(CC(=O)O)CCN(CC(=O)O)CCN(CC(=O)O)CC1)C(C)C)C(N)=O` (some centres unmarked) [lutetium-177 labelled], the tissue uptake was 19 ± 2 %ID/g (BALB/c nu/nu mice, female, tumor; 50 pmol, 1 h, with: PA 300 µg).
For `N=C1NC(=O)/C(=C/c2ccc(O)cc2)S1`, the viability was 105% (HBL-1; 0.5 µM, 120 h).
With `NS(=O)(=O)c1nnc(NC(=O)C2CCC3(CCCC3)CC2)s1` the Ki was 0.297 µM (Enterococcus faecium γ-carbonic anhydrase; CO2 hydration, inhibitor, stopped-flow kinetics).
`Cc1cccc(-c2ccc([C@@H]3[C@H](CO)N4CCCCN(S(=O)(=O)c5ccccc5F)C[C@@H]34)cc2)c1` gave an EC50 of 0.55 µM (IDE; enzyme activity, inhibitor, fluorogenic kinetic; with: Mca-RPPGFSAFK(Dnp)-OH substrate).
With `O=C1CCC(N2Cc3cc(NC(=O)c4ccccc4)ccc3C2=O)C(=O)N1` (centres unmarked) the DC50 was > 10 µM (Cereblon/Ikaros; degrader, live-cell HiBiT kinetic; Jurkat Ikaros-HiBiT LgBiT).
`NS(=O)(=O)c1nnc(NC(=O)C(F)C2CCCCC2)s1` (centres unmarked) has a Ki of 0.225 µM (Enterococcus faecium γ-carbonic anhydrase; CO2 hydration, inhibitor, stopped-flow kinetics).
For `c1coc(-c2n[nH]cc2-c2ccnc3ccccc23)c1`, “log2 fold change” read -0.04 (KIC1 (Candida albicans); kinase binding, MIB/MS competition; Candida albicans lysate; 1 µM; reference: DMSO).
With `O=C1CCC(N2C(=O)C=C(Nc3cccc(C4(NCCc5ccc(Cl)c(C(F)(F)F)c5)CCC4)c3)C2=O)C(=O)N1` (centres unmarked) the DC50 was 0.03 ± 0.003 µM (Cereblon/Ikaros; degrader; human cells).
`O=C(O)CCc1ccc2c(c1)OCO2` has a Kd of > 1000 µM (USP33 ZnF-UBD domain).
With `CCCNC(=O)N1CC(=O)N2[C@H](CO)[C@@H](c3ccc(-c4cccc(C)c4)cc3)[C@@H]2C1` the EC50 was 0.77 µM (IDE; enzyme activity, inhibitor, fluorogenic kinetic; with: Mca-RPPGFSAFK(Dnp)-OH substrate).
`COc1cc([C@@H]2c3cc4c(cc3[C@@H](O[C@@H]3O[C@@H]5CO[C@@H](C)O[C@H]5[C@H](O)[C@H]3O)[C@H]3COC(=O)[C@H]23)OCO4)cc(OC)c1O` gave a viability of 110% (HBL-1; 0.1 µM, 120 h).
`Cc1cccc(-c2ccc([C@@H]3[C@H]4CN(C(=O)c5cccnc5)CCCCN4[C@H]3CO)cc2)c1` has an EC50 of 6.6 µM (IDE; enzyme activity, inhibitor, fluorogenic kinetic; with: Mca-RPPGFSAFK(Dnp)-OH substrate).
With `Cc1ccccc1CC(=O)Nc1nnc(S(N)(=O)=O)s1` the Ki was 0.0693 µM (Enterococcus faecium γ-carbonic anhydrase; CO2 hydration, inhibitor, stopped-flow kinetics).
`CC(=O)Nc1ccccc1` has a Ki of 4000 µM (Urea transporter 1 (Homo sapiens, UniProt Q13336); urea transport inhibition; with: thiourea).

Repeated from above:
`COc1cc([C@@H]2c3cc4c(cc3[C@@H](O[C@@H]3O[C@@H]5CO[C@@H](C)O[C@H]5[C@H](O)[C@H]3O)[C@H]3COC(=O)[C@H]23)OCO4)cc(OC)c1O` gave a viability of 110% (HBL-1; 0.1 µM, 120 h).
`Cc1cccc(-c2ccc([C@@H]3[C@H]4CN(C(=O)c5cccnc5)CCCCN4[C@H]3CO)cc2)c1` has an EC50 of 6.6 µM (IDE; enzyme activity, inhibitor, fluorogenic kinetic; with: Mca-RPPGFSAFK(Dnp)-OH substrate).
With `Cc1ccccc1CC(=O)Nc1nnc(S(N)(=O)=O)s1` the Ki was 0.0693 µM (Enterococcus faecium γ-carbonic anhydrase; CO2 hydration, inhibitor, stopped-flow kinetics).
`CC(=O)Nc1ccccc1` has a Ki of 4000 µM (Urea transporter 1 (Homo sapiens, UniProt Q13336); urea transport inhibition; with: thiourea).
